Measured values pooled from the literature.
Each line is one published result; not all experiments were run side by side. ± marks the error that the study gave.

CC(C)C[C@H](NC(=O)[C@@H](O)[C@H](N)Cc1ccccc1)C(=O)O — tumour size (MRI, sum of long and short diameters; nude mouse, HT-1080 xenograft; i.p., 0.5 mg/kg/day for 7 days, 168 h): 2.9 ± 0.1 cm
COc1cc([C@@H]2c3cc4c(cc3[C@H](OC(=O)CCCc3ccc(NS(=O)(=O)c5cccc(Br)c5)cc3)[C@H]3COC(=O)[C@H]23)OCO4)cc(OC)c1OC — tumour growth (A549 xenograft, BALB/c nude mouse, female; intraperitoneal, 4 mg/kg every two days, eight doses; reference: vehicle): inhibited
C[C@H]1[C@H](OC(=O)CCC(=O)O)O[C@@H]2O[C@@]3(C)CC[C@H]4[C@H](C)CC[C@@H]1[C@@]24OO3 — tumour growth inhibition (tumour weight; mouse, Hep3B-Luc orthotopic xenograft; 50 mg/kg daily, 24 days; reference: vehicle): 19.8%
CC(C)(C)OC(=O)NCC(=O)OC1CCC2(C)C(C(O)CC3(C)C2CC(O)C2C(C4(C)CCCC(C)(C)O4)CCC23C)C1(C)C (stereo not drawn) — tumour growth inhibition (measured: tumour weight; nude mouse, HeLa xenograft; intraperitoneal, 30 mg/kg, every 2 days for 20 days): 70.3%
CC[C@H](C)[C@H](NC(=O)[C@H](CC(C)C)NC(=O)[C@@H]1CCCN1C(=O)[C@H](CCCCN)NC(=O)[C@H](CC(C)C)NC(=O)[C@H](CCCNC(=N)N)NC(=O)[C@@H](NC(=O)CN)[C@@H](C)O)C(=O)N[C@H](C(=O)N[C@@H](CS)C(=O)N[C@H](C(=O)N[C@@H](CCC(N)=O)C(=O)N[C@@H](Cc1c[nH]c2ccccc12)C(=O)N1CCC[C@H]1C(=O)NCC(=O)N[C@@H](CC(C)C)C(=O)O)C(C)C)[C@@H](C)CC — tumour volume (BALB/c mouse, CT26 colon carcinoma; intraperitoneal, 10 mg/kg daily, 13 days, pre-immunized with CT26 lysate): 608 ± 220 mm³
N=C(N)NCCC[C@@H]1NC(=O)CNC(=O)[C@H](CC(N)=O)NC(=O)[C@H](CCCCNC(=S)Nc2ccc(C[C@H]3CN(CC(=O)O)CCN(CC(=O)O)CCN3CC(=O)O)cc2)NC(=O)CC[C@@H](C(N)=O)NC1=O [gallium-68 labelled] — tumour uptake (PET/CT; BALB/c nude mouse, MCF7 xenograft; intravenous, 30 min): 0.21 ± 0.09 %ID/g
Cc1[nH]c2ccccc2c1CCNCc1ccc(/C=C/C(=O)NO)cc1 — tumour doubling time (SF8628 luciferase flank xenograft, mouse DIPG flank model; intraperitoneal, 10 mg/kg, 2 weeks daily): 8.3 days
NNc1ccc(C(=O)NCCN2CC(=Cc3ccccc3F)C(=O)C(=Cc3ccccc3F)C2)cn1 — tumour volume (mouse PANC-1 xenograft; ip, 5 µg daily, 3 weeks): ~434 mm³
COc1ccc(/C=C\c2cc(OC)c(OC)c(OC)c2)cc1OP(=O)(O)O — tumour growth inhibition (mouse S-180 tumour; intravenous, 20 mg/kg CA4 equivalent, 7 days daily dosing; reference: saline): 57.9%
Nc1ccn([C@@H]2O[C@H](CO)[C@@H](O)C2(F)F)c(=O)n1 — tumour volume (mouse, HCT-116 subcutaneous xenograft; intravenous, 25 mg/kg on days 0, 2, 4, 12 days after treatment): 343 mm³
CCCC(C)NC(=O)c1ccc(Cl)c(Cl)c1 (stereo not drawn) — tumour volume (MCF7-β3/MT xenograft, mouse; intratumoral, 0.5 mg/kg, day 46, 3 times weekly from day 29, 7 doses): 366 ± 123 mm3
CC1=CC(=O)C(C(C)C)=CC1=O — tumour volume (786-0, mouse xenograft; intraperitoneal, 20 mg/kg every 3 days, 4 weeks): ~270 mm³
Cc1ccc(C[C@H](NC(=O)[C@@H](C)NC(=O)[C@@H]2CCCN2C(=O)[C@@H]2C[C@@H]3CCCC[C@@H]3N2C(=O)[C@H](N)CCCNC(=N)N)C(N)=O)cc1 — tumour vessel count (immunostaining, measured: PECAM-1 (CD31); nude mouse PC-3 xenograft, tumour; drinking water, 3 mg/mL): 4.9 ± 2.4 vessels/hpf
CC[C@H](C)[C@H](NC(=O)[C@H](CC(C)C)NC(=O)[C@@H](NC(=O)[C@@H]1CCCN1C(=O)[C@@H](NC(=O)[C@@H]1CCCN1C(=O)[C@@H](NC(=O)[C@H](CO)NC(=O)[C@H](Cc1c[nH]cn1)NC(=O)[C@@H]1CCCN1C(=O)[C@H](CCCNC(=N)N)NC(=O)[C@H](CCCCN)NC(=O)[C@H](CCCNC(=N)N)NC(=O)[C@H](CCCNC(=N)N)NC(=O)[C@H](CCCNC(=N)N)NC(=O)[C@@H]1CCCN1C(=O)[C@H](CCCNC(=N)N)NC(=O)[C@H](CC(C)C)NC(=O)[C@H](CC(C)C)NC(=O)[C@H](Cc1c[nH]cn1)NC(=O)[C@H](Cc1c[nH]cn1)NC(=O)CNC(=O)[C@@H](N)CSSC[C@H](N)C(=O)NCC(=O)N[C@@H](Cc1c[nH]cn1)C(=O)N[C@@H](Cc1c[nH]cn1)C(=O)N[C@@H](CC(C)C)C(=O)N[C@@H](CC(C)C)C(=O)N[C@@H](CCCNC(=N)N)C(=O)N1CCC[C@H]1C(=O)N[C@@H](CCCNC(=N)N)C(=O)N[C@@H](CCCNC(=N)N)C(=O)N[C@@H](CCCNC(=N)N)C(=O)N[C@@H](CCCCN)C(=O)N[C@@H](CCCNC(=N)N)C(=O)N1CCC[C@H]1C(=O)N[C@@H](Cc1c[nH]cn1)C(=O)N[C@@H](CO)C(=O)N[C@H](C(=O)N1CCC[C@H]1C(=O)N[C@H](C(=O)N1CCC[C@H]1C(=O)N[C@H](C(=O)N[C@@H](CC(C)C)C(=O)N[C@H](C(=O)N[C@@H](Cc1ccccc1)C(=O)N[C@@H](CCCNC(=N)N)C(=O)N[C@@H](CO)C(=O)N1CCC[C@H]1C(=O)O)[C@@H](C)CC)[C@@H](C)CC)[C@@H](C)O)[C@@H](C)CC)[C@@H](C)CC)[C@@H](C)O)[C@@H](C)CC)C(=O)N[C@@H](Cc1ccccc1)C(=O)N[C@@H](CCCNC(=N)N)C(=O)N[C@@H](CO)C(=O)N1CCC[C@H]1C(=O)O — tumour growth (BALB/c nude mouse, MDA-MB-231 xenograft, human PBMC; iv, 60 or 300 µg per mouse twice weekly, 2 weeks; reference: PBS or S-compound): decreased
CC(=O)O[C@@]12CO[C@@H]1C[C@H](O)[C@@]1(C)C(=O)[C@H](O)C3=C(C)[C@@H](OC(=O)[C@H](O)[C@@H](NC(=O)OC(C)(C)C)c4ccccc4)C[C@@](O)([C@@H](OC(=O)c4ccccc4)[C@H]21)C3(C)C — tumour volume (mouse, PC-3 xenograft; 5 mg/kg once weekly for 3 weeks, day 28 after inoculation): 207 ± 66 mm3
